Results from different studies.
Every numbered part comes from another study and shows a few of its results, in no order. Substitutions count along the parent as printed.

Sample 1
Target: Histone acetyltransferase KAT6A, both winged helices, GST fusion (KAT6A, Homo sapiens, UniProt Q92794, residues 1-181)
Method: protein binding microarray
Form: double-stranded DNA, one strand shown
Sample: in vitro
Tested at: not given
Notes: 8-mer, flanks averaged, mean of 2 arrays, mostly near background
Baseline: not given
Direction: higher = stronger binding
Quantity: E-score
Residues (chain): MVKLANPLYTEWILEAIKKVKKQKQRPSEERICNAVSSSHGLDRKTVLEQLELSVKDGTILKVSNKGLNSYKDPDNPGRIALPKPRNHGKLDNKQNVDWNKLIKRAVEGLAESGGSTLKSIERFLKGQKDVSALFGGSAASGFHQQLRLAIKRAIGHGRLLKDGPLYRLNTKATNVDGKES
TCATGAAA: -0.0161
CGGGTATA: 0.232
GGTCCTAA: -0.0459
AGTTATTG: -0.02
ATTAGTGA: -0.0714
AACTCCCA: -0.226
ATACGGAT: 0.0829
ATGCAAGC: 0.0206
CCGATGCG: 0.254
CTGTCGTC: -0.168
GCTCATGA: 0.00558
ATATGGTA: -0.0624
GGTTGTCA: -0.103
GCAAATCC: 0.0267
AACCAGTC: 0.0389
AACATAGA: -0.0444
ACTAACGG: 0.138
AATAGTAG: -0.107
ATACCGAG: 0.0166
ACAGACGT: -0.00194
TGAGTACA: -0.0276
CGGCCTAA: 0.141
TCATTGAA: 0.0281
AGCCGCGC: 0.348
AGGTGCCG: 0.206

Sample 2
Target: CCNA1, cyclin fold, Cln2 fusion (human)
Method: yeast growth competition, sequencing
Sample: yeast
Notes: weak parent motif
Baseline: not given
Direction: higher = stronger binding
Quantity: normalised enrichment score
Parent: GMNC docking peptide (human); KNAKRNLSSEFAN
KNAKRNLSSENAN [F11N]: -0.285
KNAKRNFSSEFAN [L7F]: 0.16
KNAMRNLSSEFAN [K4M]: 0.0927
KKAKRNLSSEFAN [N2K]: 1.28
KNAKWNLSSEFAN [R5W]: 0.319
KNAKRNLSSEDAN [F11D]: 0.452
KNAKRNCSSEFAN [L7C]: 0.135
KNAKINLSSEFAN [R5I]: 0.0567
KNAKRNLSLEFAN [S9L]: 0.871
KNAKRRLSSEFAN [N6R]: 0.299
KNAKRNGSSEFAN [L7G]: 0.151
KNAKRKLSSEFAN [N6K]: 0.0555
KNAKRNHSSEFAN [L7H]: 0.0395
KNAPRNLSSEFAN [K4P]: 0.21
KNAKRNLSSEFPN [A12P]: 0.687
KNAKRNLSSKFAN [E10K]: 0.144

Sample 3
Target: Prothrombin, mature alpha-thrombin (F2, Homo sapiens, UniProt P00734)
Method: aptamer microarray, sandwich
Form: DNA with 2'F-ANA
Sample: in vitro
Tested at: 200 nM
Notes: whole 15-mer aptamer, many near background
With: Cy3 exosite-II aptamer, 400 nM
Direction: higher = stronger binding
Quantity: mean fluorescence intensity
Strand: GGTTGGTGTGGTTGG
2'F-ANA at 3 5 7 8 9 13 14: 59.6 a.u.
2'F-ANA at 1 2 4 6 7 11 12 13 15: 148 a.u.
2'F-ANA at 2 5 7 9 15: 68 a.u.
2'F-ANA at 1 2 4 6 7 8 9 10 11 14 15: 48.5 a.u.
2'F-ANA at 2 3 5 6 11 12 13 14 15: 59.4 a.u.
2'F-ANA at 1 2 3 5 7 8 10 12: 52.4 a.u.
2'F-ANA at 1 2 3 4 5 6 7 8 9 15: 70.1 a.u.
2'F-ANA at 1 4 5 6 7 8 10: 56.9 a.u.
2'F-ANA at 1 3 5 6 8 9 10 11 12 13 14 15: 58.3 a.u.
2'F-ANA at 8 10 12 14: 115 a.u.
2'F-ANA at 3 5 6 8 12: 254 a.u.
2'F-ANA at 1 3 4 5 6 7 8 9 10 11 12 13 14: 47.7 a.u.
2'F-ANA at 1 2 3 5 6 7 8 11 15: 55.2 a.u.
2'F-ANA at 1 2 3 4 7 10 11 13 15: 52.9 a.u.
2'F-ANA at 1 4 5 9 10 11 14: 43.5 a.u.
2'F-ANA at 1 2 4 9 11 15: 93.3 a.u.
2'F-ANA at 2 5 6 8 9 10 12 13 14 15: 46.2 a.u.
2'F-ANA at 1 2 5 6 7 11 14: 61.5 a.u.
2'F-ANA at 3 4 5 6 7 14 15: 50.5 a.u.
2'F-ANA at 1 2 4 6 8 9 11 12: 227 a.u.
2'F-ANA at 1 2 5 7 10 11: 65.6 a.u.
2'F-ANA at 1 2 3 5 6 7 8 10 12 13 15: 60.7 a.u.

Sample 4
Target: ATF1, bZIP domain (human)
Method: DHFR protein complementation
Sample: yeast
Notes: single substitutions, most at no-binding floor
Baseline: wild-type JUN-FOS pair
Direction: higher = stronger binding
Quantity: binding fitness
Parent: JUN, bZIP domain (human); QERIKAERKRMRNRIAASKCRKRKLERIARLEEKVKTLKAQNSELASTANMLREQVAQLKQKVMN; partner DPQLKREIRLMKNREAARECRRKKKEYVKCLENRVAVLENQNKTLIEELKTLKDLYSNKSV
A40N: -1.4 natural log
A29T: -1.51 natural log
R53S: -1.53 natural log
L31I: -1.48 natural log
L45V: -1.52 natural log
V56M: -1.53 natural log
N42Y: -1.42 natural log
V56N: -1.49 natural log
E44P: -1.55 natural log
L52G: -1.53 natural log
L38V: -1.52 natural log
T48Y: -1.56 natural log
E44A: -1.49 natural log
A46S: -1.51 natural log
T48V: -1.53 natural log
E32Y: -1.51 natural log

Sample 5
Target: RNA binding protein fox-1 homolog 2, RRM domain, GST-SBP tag (RBFOX2, Homo sapiens, UniProt O43251-10, residues 100-194)
Method: RNA Bind-n-Seq
Form: RNA
Sample: in vitro
Tested at: 365 nM
Notes: natural RNA segment, single round, ends assumed
Baseline: no-protein control
Direction: higher = stronger binding
Quantity: RBNS enrichment (R)
Target sequence (chain): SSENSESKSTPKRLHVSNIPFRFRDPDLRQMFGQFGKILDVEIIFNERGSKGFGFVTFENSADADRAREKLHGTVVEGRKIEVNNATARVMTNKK
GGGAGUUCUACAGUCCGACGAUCUCUUUGUGCAUGGUGCAUGUCAAGUCAGGAAGCCAAGAAACCGUUGGCAUUAAAAUCUAGAUGCAUAGAGAUCCUUGCUAUGAGUUGUGGAUAGGAGUGGCUCCAUCUAUUGGAAUUCUCGGGUGCCAA: 18.3
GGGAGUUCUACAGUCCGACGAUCGGCUCAGGCUACUAUGACCAAUAGAAGUGAAAGUCUUGGUCAUAAUUUGGGGUGACAUGCUGUCAAAAGGCUAAUAUAGACUGGGUGUGGUAGUGCACACCUUGAAUCUGUGGAAUUCUCGGGUGCCAA: 0.472
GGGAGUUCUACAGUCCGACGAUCUUCUAUCCCAAGGAGAGUGUGACUGGGUCACACUCACAGUUGCUGUUACUGAAAUGAACUCUGCAGGAAUGGUGUUUCAGCGGGUGCGGCUUGACUGGUUUGAGUUCCCGUGGAAUUCUCGGGUGCCAA: 0.714
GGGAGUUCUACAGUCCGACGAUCAAGUUUGGACGGUACUAAAGUCACCUCUGACUUCCUUCUGGGUUCCCCUACUACAGUUCUUGCUUCCAUGCAAGGUGAACCUGAGGGGAGGAAGGCGUGGCUCUCUGAAAUGGAAUUCUCGGGUGCCAA: 0.297
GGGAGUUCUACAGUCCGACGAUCGAAUCGCAUGUAGUAGAGCUGAAAGAAUUAAAGACCCGGCUUACAGCUUCAGAUGAAGCUUUAAGCUGCAGUGUUGUGAAGUGAUUAAUUCCCUUUCUACCAACCCCGUGUGGAAUUCUCGGGUGCCAA: 4.68
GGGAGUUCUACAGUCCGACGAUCCCAUCACUGUAAUUUAUGGCCCCCGCCGUGGGGCAGCCUAGCCCUUGUGUCUGUGUAUAUACUGUGCCUUUUCUCCUUGUCGAGGGGUGGGAGGGGUUGGUUUUUCACUGUGGAAUUCUCGGGUGCCAA: 0.317
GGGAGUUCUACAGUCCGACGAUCGCCGUUGUCUUUCUCAACUGCUACUGUCACGUUGCUUUCAAGAAAACAUUUUUUUUCAUUCCAGACUAACCAGAACCUGCAUUUAGAAUAGGAGUCCUUUCUCCGACCUUUGGAAUUCUCGGGUGCCAA: 0.611
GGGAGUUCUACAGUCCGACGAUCCCAAUCCUAUGUUUUUGUUCAAAGCCAGCGUCCUCCUCUGUGACCAAUGUCUUGAUGCAUGCACUGUUCCCCCUGUGCAGCCGCUGAGCGAGGAGAUGCUCCUUGGGCCCUGGAAUUCUCGGGUGCCAA: 3.14
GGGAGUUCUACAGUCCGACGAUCCGGAUUCCCCUCGCUGGAGAGGCUCCUGUCUGAUAGCGGUAGAUGAAAAAUAAGGUCGUUAUGACUUUGGCAACUUGCUUCAUUUCUUUUUCAUUUGACUUACAACACACUGGAAUUCUCGGGUGCCAA: 0.566
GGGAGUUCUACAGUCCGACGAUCAACUCCAGCUCACACAUCUACCCAAGAUGCUUGGGGUUCUCUUUUUUCAUCUGAUUAUGUUAGGCCCUAGCUCUAGGUCAGCCCUGCUGGGCCCUUGAGAGGGGCUCUGUUGGAAUUCUCGGGUGCCAA: 0.441
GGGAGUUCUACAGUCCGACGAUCACUGAGGAAAAUGGUGUUUUCCUCAAGAAGACUACUGGAACUGGAUGACCUCAGAAUGAACUGGAUUGUGGUGUUCACAAGAAAAUCUUAGUUUGUGAUGAUUACAUUGCUGGAAUUCUCGGGUGCCAA: 0.373
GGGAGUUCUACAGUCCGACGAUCGGCGAGGGGAGCCAUGCCAAGGGUCCAGGCUGCUUUAGGCCAUCUGUGCCCCACUCAUCUGGGGACAGAUGGUUUUUCUUUAUUGUAAAAUUGUGGACUUUUAAAACCUGUGGAAUUCUCGGGUGCCAA: 0.578

Sample 6
Target: ABI1, truncated, D143A, DHFR fusion (Arabidopsis thaliana)
Method: DHFR PCA, deep sequencing
Sample: yeast
Notes: methotrexate growth selection, single substitutions
With: (+)-ABA 0.11 µM
Baseline: wild-type fitted maximum
Direction: higher = stronger binding
Quantity: relative binding score
Parent: PYL1, truncated, DHFR fusion (Arabidopsis thaliana); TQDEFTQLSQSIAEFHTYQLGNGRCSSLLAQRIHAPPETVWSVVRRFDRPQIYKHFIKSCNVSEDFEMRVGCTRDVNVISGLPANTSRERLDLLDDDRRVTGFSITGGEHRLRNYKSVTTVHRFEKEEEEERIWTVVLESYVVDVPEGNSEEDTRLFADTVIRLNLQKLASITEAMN
E38N: 6.32%
V76K: -5.04%
E130W: 2.28%
L93V: 39.7%
N85A: 58.2%
C60P: -2.17%
V44A: 0.587%
V100E: -6.49%
E131C: 39.9%
V78K: 8.97%
R98L: 12.3%
A158P: -6.63%
C25Q: -9.79%
F157A: 4.38%
A84D: 26.5%
T6C: 27.4%
V100C: 26.6%
F103I: -2.08%
V161T: 14.2%
R99L: 58.3%
G108N: -0.764%
E151S: 28%
